Results gathered from unrelated publications.
Each numbered part is a random draw from the data of one study; scales do not carry over between parts.

Study 1 — method: protein binding microarray; form: double-stranded DNA, one strand shown; matrix: in vitro; concentration: not given; reference: not given; reading: higher = stronger binding
Target: Histone acetyltransferase KAT6A, winged helix 1, GST fusion (KAT6A, Homo sapiens, UniProt Q92794, residues 1-85)
Notes: 8-mer, flanks averaged, mean of 2 arrays, mostly near background
Target sequence (chain): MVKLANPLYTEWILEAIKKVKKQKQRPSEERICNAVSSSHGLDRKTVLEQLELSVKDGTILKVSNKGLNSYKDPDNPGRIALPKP
For `GACGAGAA`, the E-score was -0.202.
`GTGTCGTA` gave an E-score of -0.204.
For `ATAATGTC`, the E-score was 0.0168.
With `ACTGATAA` the E-score was -0.156.
The E-score of `CACATCGG` is reported as 0.11.
With `TGGCAAAA` the E-score was -0.212.
The E-score of `CTGAGACC` is reported as -0.0411.
`ACTCCAAA` gave an E-score of -0.145.
The E-score of `GCGGGTGA` is reported as 0.342.
The E-score of `CGGAGAAA` is reported as 0.184.
`AAAAGGCT` has an E-score of -0.0551.
With `GGAGGGAC` the E-score was -0.00826.
The E-score of `ATCTTCCC` is reported as -0.118.
With `AAGCGTAT` the E-score was 0.179.
`ACGCACAG` has an E-score of 0.19.
`ATGCATTA` gave an E-score of -0.214.
`ATTTATTA` has an E-score of -0.0174.
The E-score of `ACCCGAGA` is reported as 0.00024.
For `ATGTTAAC`, the E-score was -0.0906.
`CTAACTAC` has an E-score of -0.103.
The E-score of `ACAGACGA` is reported as -0.0316.
The E-score of `GCACTTCA` is reported as -0.0138.
`GATTTCAA` has an E-score of -0.0478.
For `GGACTCTA`, the E-score was -0.0914.
`AGCATTAG` gave an E-score of -0.0285.

Study 2 — method: RNAcompete; form: RNA; matrix: in vitro; concentration: 20 nM; notes: 7-mer, probes averaged, single round; reference: mean of 7-mers; reading: higher = stronger binding
Target: PABPC1L2, full length, GST fusion (mouse, UniProt A0ABA7IW68)
Construct (chain): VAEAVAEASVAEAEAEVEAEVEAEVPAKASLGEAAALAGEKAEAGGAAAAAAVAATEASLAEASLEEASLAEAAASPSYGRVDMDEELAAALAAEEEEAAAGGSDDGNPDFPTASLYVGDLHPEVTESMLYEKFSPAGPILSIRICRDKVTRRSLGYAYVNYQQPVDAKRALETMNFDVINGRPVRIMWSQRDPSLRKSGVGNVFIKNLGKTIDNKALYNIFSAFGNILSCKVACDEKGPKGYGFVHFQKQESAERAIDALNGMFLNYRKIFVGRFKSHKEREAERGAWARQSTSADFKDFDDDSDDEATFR
The 7-mer Z-score of `CUUAGGG` is reported as -0.079.
The 7-mer Z-score of `GUACCCC` is reported as -0.452.
The 7-mer Z-score of `GUUACGU` is reported as -0.315.
`AAGUCAC` gave a 7-mer Z-score of 0.0315.
`GCCUUAG` gave a 7-mer Z-score of -0.336.
The 7-mer Z-score of `AUGGCCC` is reported as 0.095.
With `CUCUAGA` the 7-mer Z-score was -0.211.
For `UAGGACA`, the 7-mer Z-score was 0.0841.
The 7-mer Z-score of `UGUAUCU` is reported as -0.257.
`CCCUAAU` gave a 7-mer Z-score of -0.258.
`UGCUAAG` gave a 7-mer Z-score of -0.242.
For `GACGGAC`, the 7-mer Z-score was 0.0642.
`CAUGUUC` has a 7-mer Z-score of -0.374.
`AUAACCG` gave a 7-mer Z-score of -0.106.
For `UCCUCUA`, the 7-mer Z-score was -0.231.
The 7-mer Z-score of `GACCGCA` is reported as -0.0935.
The 7-mer Z-score of `GGUCGUG` is reported as -0.211.
`GACACUA` gave a 7-mer Z-score of -0.0464.
`GGGGCCC` gave a 7-mer Z-score of -0.191.
`CUAGGAA` has a 7-mer Z-score of 0.182.
With `UGGUGCG` the 7-mer Z-score was -0.0156.
With `UUUAACU` the 7-mer Z-score was -0.277.
`UCCUUUU` gave a 7-mer Z-score of -0.0989.

Study 3 — method: RNA Bind-n-Seq; form: RNA; matrix: in vitro; concentration: 20 nM; notes: 6-mer, flanks averaged, single round; with: 150 mM LiCl; reference: input library; reading: higher = stronger binding
Target: TAR DNA-binding protein 43, full length, His tag (TARDBP, Homo sapiens, UniProt Q13148, residues 1-414)
For `GACUUC`, “6-mer enrichment (R)” read 0.823.
`UCUUAU` — result for “6-mer enrichment (R)”: 1.01.
`UACUUG` — result for “6-mer enrichment (R)”: 0.927.
For `CUAAUA`, “6-mer enrichment (R)” read 0.953.
`CUGCAG`: “6-mer enrichment (R)” 0.906.
For `UCCAAA`, “6-mer enrichment (R)” read 0.814.
Under “6-mer enrichment (R)”, `ACUCGC` is recorded as 0.815.
Under “6-mer enrichment (R)”, `GACUGU` is recorded as 1.11.
`UCCUCA` — result for “6-mer enrichment (R)”: 0.889.
For `CCGGAU`, “6-mer enrichment (R)” read 0.886.
`UGGACU`: “6-mer enrichment (R)” 1.01.
`CGCACU`: “6-mer enrichment (R)” 0.859.
`AAUGAG` — result for “6-mer enrichment (R)”: 1.07.
Under “6-mer enrichment (R)”, `GCUCAC` is recorded as 0.845.
`ACCGAA` — result for “6-mer enrichment (R)”: 0.808.
`CGGAGU`: “6-mer enrichment (R)” 1.
`CGGCGA`: “6-mer enrichment (R)” 0.938.
`GUAGUG`: “6-mer enrichment (R)” 1.34.
`CGAAAC`: “6-mer enrichment (R)” 0.77.
For `GACUCG`, “6-mer enrichment (R)” read 0.856.
`GGGAUC`: “6-mer enrichment (R)” 1.02.
`GGCGUA` — result for “6-mer enrichment (R)”: 1.01.
For `UUGGGG`, “6-mer enrichment (R)” read 1.35.

Study 4 — method: protein-binding microarray; form: double-stranded DNA, one strand shown; matrix: in vitro; concentration: 940 nM top; notes: 60-bp whole probe; with: salmon DNA 0.4 mg/ml; reference: random background probes; reading: higher = stronger binding; all sequences stand within: GCCTAGCAC … GTCTTGATTCGCTTGACGCTGCTG
Target: Interferon regulatory factor 5, full length, phosphomimetic (IRF5, Homo sapiens, UniProt Q13568-2, residues 1-514, S451D/S453D/S456D/S462D)
For `TTAGATTTCGGGACTGTATTAGTGCTA`, “fitted relative affinity” read 0.53 z-score.
Under “fitted relative affinity”, `GCACTGTGCCTGCTGCCCTTGTGCTAG` is recorded as -0.506 z-score.
Under “fitted relative affinity”, `GAGTGGTTCTGCTTCTTAGCGTGCTAG` is recorded as 0.151 z-score.
`TCACACATTTTTTTCATACTGTGCTAG`: “fitted relative affinity” 1.54 z-score.
For `TCATTTCTCTTTCACTAACTGTGCTAG`, “fitted relative affinity” read 2.87 z-score.
`TTAGGACTGGGGTTACGGTTAGTGCTA`: “fitted relative affinity” 0.192 z-score.
`GACGATTTCGGGGTTCGAGACGTGCTA` — result for “fitted relative affinity”: 0.809 z-score.
`ATAGATTTCAGTTTCGATTAGTGCTAG`: “fitted relative affinity” 9.15 z-score.
Under “fitted relative affinity”, `TTAGGACTGGACTATTGGTTAGTGCTA` is recorded as -0.387 z-score.
Under “fitted relative affinity”, `TCTCATTTCCAATTACCTTTGTGCTAG` is recorded as 5.66 z-score.
`TTAGATCGCAGTATCGATTAGTGCTAG` — result for “fitted relative affinity”: 3.87 z-score.
For `GACGATTGCAGTTCCGAGACGTGCTAG`, “fitted relative affinity” read -0.138 z-score.
For `TTAGATTTCAGTATCGATTAGTGCTAG`, “fitted relative affinity” read 5.81 z-score.
For `TTAGATTTCTGGTATCGATTAGTGCTA`, “fitted relative affinity” read 5.41 z-score.
`TTAGATTTCGGTTATCGATTAGTGCTA`: “fitted relative affinity” 3.25 z-score.
For `TTAGGTTTCGGTTTGGGTTAGTGCTAG`, “fitted relative affinity” read 15.5 z-score.
`GCTCATTTTTTTTGCAAGCTGTGCTAG`: “fitted relative affinity” 0.684 z-score.

Study 5 — method: RNA Bind-n-Seq; form: RNA; matrix: in vitro; concentration: 200 nM; notes: whole 134-nt RNA, ends assumed; with: 150 mM LiCl; reference: input library; reading: higher = stronger binding; all molecules: 7-deaza-guanosine replaces G
Target: Ras GTPase-activating protein-binding protein 1, full length (G3BP1, Homo sapiens, UniProt Q13283)
UniProt Q13283, sequence (whole entry, looked up): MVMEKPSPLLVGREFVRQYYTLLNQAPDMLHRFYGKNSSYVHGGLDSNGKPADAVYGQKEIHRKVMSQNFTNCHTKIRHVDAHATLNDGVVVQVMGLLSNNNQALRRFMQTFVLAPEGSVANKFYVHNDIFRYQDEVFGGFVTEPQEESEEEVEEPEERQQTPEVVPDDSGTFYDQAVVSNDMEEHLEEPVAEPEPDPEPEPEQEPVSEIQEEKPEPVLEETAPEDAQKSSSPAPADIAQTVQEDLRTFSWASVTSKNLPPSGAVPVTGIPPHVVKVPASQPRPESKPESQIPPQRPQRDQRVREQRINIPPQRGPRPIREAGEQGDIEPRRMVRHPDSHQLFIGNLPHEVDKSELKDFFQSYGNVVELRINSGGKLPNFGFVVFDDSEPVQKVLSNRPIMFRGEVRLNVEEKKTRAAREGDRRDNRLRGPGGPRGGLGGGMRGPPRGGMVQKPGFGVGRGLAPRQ
The log2 enrichment of `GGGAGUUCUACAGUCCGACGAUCCCUGCUUUUGGGGGUGACCGCCGGAGCGCGGCGUGAGCCCUCCCCCUUGGGAUCCCGCAGCUGACCAGUCGCGCUGACGGACAGACAGACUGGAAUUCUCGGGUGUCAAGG` is reported as -1.98.
With `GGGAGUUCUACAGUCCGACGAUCCCUCAAGUCCUGUGCUACACAUCGUAUGUACCGAAUCGGGCGGCGGGCGGGGAAAGUAUUAUGUUACGCCGUUCGGAUCUGCACUUCCAGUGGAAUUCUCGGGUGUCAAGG` the log2 enrichment was 0.488.
With `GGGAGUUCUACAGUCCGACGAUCAGUCCUGUGCUACACAUCGUAUGUACCGAAUCGGGGUUUUGGGUUUUGGGGUUUUGGGAAAGUAUUAUGUUACGCCGUUCGGAUCUGCACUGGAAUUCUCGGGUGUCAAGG` the log2 enrichment was 0.136.
With `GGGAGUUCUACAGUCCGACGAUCAGUCCUGUGCUACACAUCGUAUGUACCGAAUCGGAAAAAGGAAAAAGGGAAAAAGGGGAAAGUAUUAUGUUACGCCGUUCGGAUCUGCACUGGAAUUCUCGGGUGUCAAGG` the log2 enrichment was -0.528.
`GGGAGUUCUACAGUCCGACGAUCUAGGAAAACCGUCUUCAGAUACAGUCCCUAAGCCCAAGAGAGCCCCAAAACAGAAGAAAGUAGUAGAGGCUGUAAACUCUGACUCGGAUUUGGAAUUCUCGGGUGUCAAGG` has a log2 enrichment of 0.967.
`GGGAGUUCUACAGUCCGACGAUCACCUUCACGGCAUGGUGCAACUCCCACCUGCGGAAGGCAGGCACACAGAUCGAGAACAUUGAUGAGGACUUCCGAGACGGGCUCAAGCUCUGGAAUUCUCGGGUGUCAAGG` gave a log2 enrichment of 0.873.
With `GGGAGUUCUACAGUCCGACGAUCUCCUGUGCUACACAUCGUAUGUACCGAAUCGGGGUUUUUGGGGAAAGGGGAAAAAGGGGAAAGUAUUAUGUUACGCCGUUCGGAUCUGCAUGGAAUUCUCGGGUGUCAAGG` the log2 enrichment was 0.141.
The log2 enrichment of `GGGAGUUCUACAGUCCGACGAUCCCUCAAGUCCUGUGCUACACAUCGUAUGUACCGAAUCGGGUGGUGGGGUGGGAAAGUAUUAUGUUACGCCGUUCGGAUCUGCACUUCCAGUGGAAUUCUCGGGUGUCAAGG` is reported as 0.304.
`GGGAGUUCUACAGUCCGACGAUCUGGGAGGUGGAUUUUGUUUAUUUUUUUAGCUCAUUUCCAGGGGUGGGAAUUUUUUUUUACUAUGUGUCAUGAAUAAAGUUGUUUUUGAAAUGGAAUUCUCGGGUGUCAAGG` has a log2 enrichment of -0.408.
`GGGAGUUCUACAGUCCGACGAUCUGGCCCUGGUGGCAUGCGGGGAGGAAGAGGUGGCCUCAUGGAUCGUGGAGGUCCCGGUGGAAUGUUCAGAGGUGGCCGUGGUGGAGACAGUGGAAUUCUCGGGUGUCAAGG` has a log2 enrichment of 0.654.
For `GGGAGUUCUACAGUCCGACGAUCUCCUGUGCUACACAUCGUAUGUACCGAAUCGGGGUUUUUUGGGUUUUUUGGUUUUUUGGAAAGUAUUAUGUUACGCCGUUCGGAUCUGCAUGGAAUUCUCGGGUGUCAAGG`, the log2 enrichment was 0.515.

Other studies, line by line
`PhoQ, residues 284 288 289 292 302 303 MLMVEA` has a fold induction of 10.4 (PhoP, residues 12 14 15 18 19 HEGLL (Escherichia coli, UniProt P23836); Sort-seq, refers to: YFP reporter; E. coli; PhoQ-PhoP variant library, with: 10 µM Mg2+; reference: high Mg2+ state, higher = stronger signaling).

Repeated from above (study 2):
`GACACUA` gave a 7-mer Z-score of -0.0464.
The 7-mer Z-score of `AUGGCCC` is reported as 0.095.
`AAGUCAC` gave a 7-mer Z-score of 0.0315.
With `UUUAACU` the 7-mer Z-score was -0.277.
`UGCUAAG` gave a 7-mer Z-score of -0.242.
The 7-mer Z-score of `GACCGCA` is reported as -0.0935.
For `GACGGAC`, the 7-mer Z-score was 0.0642.
The 7-mer Z-score of `CUUAGGG` is reported as -0.079.
`CAUGUUC` has a 7-mer Z-score of -0.374.
The 7-mer Z-score of `GUACCCC` is reported as -0.452.
`GCCUUAG` gave a 7-mer Z-score of -0.336.
`GGGGCCC` gave a 7-mer Z-score of -0.191.
The 7-mer Z-score of `UGUAUCU` is reported as -0.257.
For `UAGGACA`, the 7-mer Z-score was 0.0841.
The 7-mer Z-score of `GGUCGUG` is reported as -0.211.
`AUAACCG` gave a 7-mer Z-score of -0.106.
